Assay results of several laboratories.
Protocols differ between the studies behind these lines. Numbers after ± are the reported error.

SMILES = N=C(N)NCCC[C@@H]1NC(=O)[C@H](CCCCNC(=O)CON=C[C@H](F)[C@@H](O)[C@H](O)[C@H](O)CO)NC(=O)[C@@H](Cc2ccc(O)cc2)NC(=O)[C@H](CC(=O)O)NC(=O)CNC1=O [fluorine-18 labelled]; test system = nude mice U-87 MG tumour, stomach; setting = intravenous, 2 h; tissue uptake = 0.46 ± 0.52 %ID/g
SMILES = O=C([O-])CN1CCN(CC(=O)[O-])CCN(CC(=O)NC[C@H]2CC[C@H](C(=O)N[C@H](Cc3cnc4ccccc4c3)C(=O)NCCCC[C@H](NC(=O)N[C@@H](CCC(=O)O)C(=O)O)C(=O)O)CC2)CCN(CC(=O)[O-])CC1.[64Cu+2]; test = ex vivo gamma counting; test system = 22Rv1 tumour-bearing mice, kidney; setting = intravenous, 0.74 MBq, 1 h; tissue uptake = 147 ± 33 %ID/g
SMILES = NC12CNCCNCC(NCc3ccc(CNC(=O)CCCC(=O)NCc4ccc(-c5nncnn5)cc4)cc3)(CNCCNC1)CNCCNC2.[64Cu+2]; test system = athymic nude mice, SW1222 xenograft, muscle; setting = 24 h post-injection, 24 h pretargeting interval, with: huA33-TCO pretargeting; tissue uptake = 0.2 ± 0.07 %ID/g
SMILES = O=C([O-])c1cccc(CN(CCN(Cc2cn(Cc3ccccc3)nn2)Cc2cccc(C(=O)[O-])n2)Cc2cn(Cc3ccccc3)nn2)n1.[64Cu+2]; test system = healthy athymic nude mice, large intestine; setting = intravenous, 4 h; tissue uptake = 21.1 %ID/g
SMILES = CCCC[C@H](NC(=O)CN1CCC(NC(=O)CN2CCN(CC(=O)O)CCN(CC(=O)O)CCN(CC(=O)O)CC2)CC1)C(=O)N[C@H]1CC(=O)NCCCC[C@@H](C(N)=O)NC(=O)[C@H](Cc2c[nH]c3ccccc23)NC(=O)[C@H](CCCNC(=N)N)NC(=O)[C@@H](Cc2ccccc2)NC(=O)[C@H](Cc2c[nH]cn2)NC1=O [gallium-68 labelled]; test system = C57BL/6J mice male B16-F10 tumour, bone; setting = 2 h post injection, unblocked; tissue uptake = 0.6 ± 0.2 %ID/g
SMILES = CC(C)[C@H](NC(=O)[C@@H]1CCCN1C(=O)[C@H](CCCNC(=N)N)NC(=O)[C@H](CS)NC(=O)[C@H](Cc1c[nH]c2ccccc12)NC(=O)[C@H](CCCNC(=N)N)NC(=O)[C@@H](Cc1ccccc1)NC(=O)[C@H](Cc1c[nH]cn1)NC(=O)[C@H](CCC(=O)O)NC(=O)[C@H](CS)NC(=O)[C@H](CS)NC(=O)[C@@H]1CC(=O)N[C@@H](CCCNC(=N)N)C(=O)NCC(=O)N[C@@H](CC(=O)O)C(=O)N[C@H](Cc2ccc(O)cc2)C(=O)N1)C(N)=O [technetium-99m labelled]; test system = C57 mice B16/F1 melanoma female, kidneys; setting = iv, 0.037 MBq, 4 h; tissue uptake = 16 ± 2.47 %ID/g
SMILES = CCCC[C@H](NC(=O)CNC(=O)CNC(=O)CN1CCN(CC(=O)O)CCN(CC(=O)O)CCN(CC(=O)O)CC1)C(=O)N[C@H]1CC(=O)NCCCC[C@@H](C(N)=O)NC(=O)[C@H](Cc2c[nH]c3ccccc23)NC(=O)[C@H](CCCNC(=N)N)NC(=O)[C@@H](Cc2ccccc2)NC(=O)[C@H](Cc2c[nH]cn2)NC1=O [gallium-67 labelled]; test system = female C57 mice, B16/F1 melanoma, tumor; setting = intravenous, 0.037 MBq, 24 h; tissue uptake = 7.54 ± 1.19 %ID/g
SMILES = CN1C(=O)[C@@H](Cc2ccc(O)c(I)c2)NC(=O)CNC(=O)[C@H](Cc2ccc3ccccc3c2)NC(=O)[C@H](CCCNC(=N)N)NC(=O)[C@H]1CCCNC(=O)c1ccc(CNC(=O)CN2CCN(CC(=O)O)CCN(CC(=O)O)CCN(CC(=O)O)CC2)cc1 [lutetium-177 labelled]; test = refers to: 177Lu radioactivity; test system = female CB-17 SCID mice, Daudi xenograft, blood; setting = intravenous, 0.16 nmol per mouse, 96 h; tissue uptake = 0.01 ± 0.001 %ID/g
SMILES = N=C(N)NCCC[C@H](NC(=O)CON=C[C@H](F)[C@@H](O)[C@H](O)[C@H](O)CO)C(=O)NCC(=O)N[C@@H](CC(=O)O)C(=O)O [fluorine-18 labelled]; test system = nude mice U-87 MG tumour, stomach; setting = intravenous, 0.5 h; tissue uptake = 0.61 ± 0.5 %ID/g
SMILES = O=C([O-])CN1CCN(CC(=O)[O-])CCN(CC(=O)NCCc2ccc3c(c2)C2C=CCC2C(c2cc4c(cc2Br)OCO4)N3)CCN(CC(=O)[O-])CC1.[111In+3] (stereo not drawn); test system = mice with Hec50 tumour xenograft, Hec50 tumour; setting = 2 h; tissue uptake = 0.6 ± 0.03 %ID/g
SMILES = CCCC[C@@H]1NC(=O)[C@@H](NC(=O)[C@H](CCC(=O)O)NC(=O)CNC(=O)CN2CCN(CC(=O)O)CCN(CC(=O)O)CCN(CC(=O)O)CC2)CCCCNC(=O)C[C@@H](C(N)=O)NC(=O)[C@H](C(C)C)NC(=O)[C@@H]2CCCN2C(=O)[C@H](CCCNC(=N)N)NC(=O)CNC(=O)[C@H](Cc2c[nH]c3ccccc23)NC(=O)[C@H](CCCNC(=N)N)NC(=O)[C@@H](Cc2ccccc2)NC(=O)[C@H](Cc2c[nH]cn2)NC(=O)[C@H](CCC(=O)O)NC1=O [gallium-67 labelled]; test system = C57 mice with B16/F1 melanoma, spleen; setting = intravenous, 0.037 MBq, 2 h; tissue uptake = 0.09 ± 0.08 %ID/g
SMILES = CCCC[C@H](NC(=O)CNC(=O)CNC(=O)CN1CCN(CC(=O)O)CCN(CC(=O)O)CC1)C(=O)N[C@H]1CC(=O)NCCCC[C@@H](C(N)=O)NC(=O)[C@H](Cc2c[nH]c3ccccc23)NC(=O)[C@H](CCCNC(=N)N)NC(=O)[C@@H](Cc2ccccc2)NC(=O)[C@H](Cc2c[nH]cn2)NC1=O [gallium-67 labelled]; test system = female C57 mice, B16/F1 melanoma, brain; setting = intravenous, 0.037 MBq, 4 h; tissue uptake = 0.08 ± 0.03 %ID/g

Some of these lines once more:
SMILES = CCCC[C@@H]1NC(=O)[C@@H](NC(=O)[C@H](CCC(=O)O)NC(=O)CNC(=O)CN2CCN(CC(=O)O)CCN(CC(=O)O)CCN(CC(=O)O)CC2)CCCCNC(=O)C[C@@H](C(N)=O)NC(=O)[C@H](C(C)C)NC(=O)[C@@H]2CCCN2C(=O)[C@H](CCCNC(=N)N)NC(=O)CNC(=O)[C@H](Cc2c[nH]c3ccccc23)NC(=O)[C@H](CCCNC(=N)N)NC(=O)[C@@H](Cc2ccccc2)NC(=O)[C@H](Cc2c[nH]cn2)NC(=O)[C@H](CCC(=O)O)NC1=O [gallium-67 labelled]; test system = C57 mice with B16/F1 melanoma, spleen; setting = intravenous, 0.037 MBq, 2 h; tissue uptake = 0.09 ± 0.08 %ID/g
SMILES = CCCC[C@H](NC(=O)CNC(=O)CNC(=O)CN1CCN(CC(=O)O)CCN(CC(=O)O)CC1)C(=O)N[C@H]1CC(=O)NCCCC[C@@H](C(N)=O)NC(=O)[C@H](Cc2c[nH]c3ccccc23)NC(=O)[C@H](CCCNC(=N)N)NC(=O)[C@@H](Cc2ccccc2)NC(=O)[C@H](Cc2c[nH]cn2)NC1=O [gallium-67 labelled]; test system = female C57 mice, B16/F1 melanoma, brain; setting = intravenous, 0.037 MBq, 4 h; tissue uptake = 0.08 ± 0.03 %ID/g
